Assay results pooled from the literature.
Each line is one published result; not all experiments were run side by side. ± marks the error that the study gave.

Compound | test | system | setting | how to read | endpoint | value
Cc1ccc(-c2ccc(-c3cc4sccc4o3)cn2)nc1 | TCSPC | acetonitrile | zinc-free ligand |  | fluorescence lifetime | 1.3 ns
CCC/C(=C\C1=C(OC)C(=O)c2ccccc2C1=O)C(=O)NOC |  | human plasma | 1 µM, 37 °C |  | t1/2 | 0.197 days
C=CC(=O)Nc1cc(Nc2nccc(-c3cn(C4CC4)c4ccccc34)n2)c(OC)cc1NC | radiolabelled metabolite profiling | human male, plasma | oral, 110 mg, 4 h |  | plasma concentration | 7.75 ng/g
CCCC[C@@H]1NC(=O)[C@@H](NC(=O)[C@H](CCC(=O)O)NC(=O)CNC(=O)CN2CCN(CC(=O)O)CCN(CC(=O)O)CCN(CC(=O)O)CC2)CCCCNC(=O)C[C@@H](C(N)=O)NC(=O)[C@H](C(C)C)NC(=O)[C@@H]2CCCN2C(=O)[C@H](CCCNC(=N)N)NC(=O)CNC(=O)[C@H](Cc2c[nH]c3ccccc23)NC(=O)[C@H](CCCNC(=N)N)NC(=O)[C@@H](Cc2ccccc2)NC(=O)[C@H](Cc2c[nH]cn2)NC(=O)[C@H](CCC(=O)O)NC1=O [gallium-67 labelled] |  | C57 mice, B16/F1 flank melanoma, intestine | intravenous, 0.037 MBq/mouse, 2 h |  | intestine uptake | 0.37 ± 0.23 %ID
CCCC[C@H](NC(=O)CNC(=O)CNC(=O)CN1CCN(CC(=O)O)CCN(CC(=O)O)CCN(CC(=O)O)CC1)C(=O)N[C@H]1CC(=O)NCCCC[C@@H](C(N)=O)NC(=O)[C@H](Cc2c[nH]c3ccccc23)NC(=O)[C@H](CCCNC(=N)N)NC(=O)[C@@H](Cc2ccccc2)NC(=O)[C@H](Cc2c[nH]cn2)NC1=O [gallium-67 labelled] |  | female C57 mice, B16/F1 melanoma | intravenous, 0.037 MBq, 0.5 h | relative to: tumour over kidney | tumour to tissue ratio | 1.76
O=C([O-])CN1CCN(CC(=O)[O-])CCN(CC(=O)NC[C@H]2CC[C@H](C(=O)N[C@H](Cc3cnc4ccccc4c3)C(=O)NCCCC[C@H](NC(=O)N[C@@H](CCC(=O)O)C(=O)O)C(=O)O)CC2)CCN(CC(=O)[O-])CC1.[64Cu+2] | PET/CT dosimetry OLINDA/EXM | healthy volunteers, pancreas | up to 24 h post-injection |  | absorbed dose | 0.0325 mGy/MBq
CCn1cc(-c2cc(Cn3ccnc3)cc3c2CCN([C@H](c2cc(OC)ccn2)C2CC2)C3=O)c(C(F)(F)F)n1 |  | mouse whole blood | 1 µM, 4 h, pH 7.4 |  | whole blood protein binding | 99.8 ± 0.1%
Cc1cc2c(cc1C1(c3ncc(C(=O)O)cn3)CC1)C(C)(C)CCC2(C)C |  | Sprague-Dawley rat, male, plasma | oral, 100 mg/kg, 9 h, sesame oil vehicle |  | HDL level | 51 ± 3.2 mg/dL
CC(=O)[CH](C(C)=O)[Pt-2]1([S+](C)C)[O]C(C)=CC(C)=[O+]1 (stereo not shown) | item: platinum | rat, plasma | intravenous, dose not given |  | AUC(0-24 h) | 868 µg·h/mL
C=C(c1ccc(C(=O)O)c(F)c1)c1cc2c(cc1C)C(C)(C)C=CC2(C)C |  | Sprague-Dawley rat, male, plasma | oral, 100 mg/kg, 2 h, sesame oil vehicle |  | HDL level | 80 ± 7.5 mg/dL
CCCCN1C(=O)c2cccc3c(NCCCCCCCCN4CCOCC4)ccc(c23)C1=O |  | aqueous medium | pH 6 |  | fluorescence brightness | 2530 M⁻¹ cm⁻¹
O=C([O-])CN1CCN(CC(=O)[O-])CCN(CC(=O)NCC2CCC(C(=O)NC(Cc3ccc4ccccc4c3)C(=O)NCCCCC(NC(=O)NC(CCC(=O)O)C(=O)O)C(=O)O)CC2)CCN(CC(=O)[O-])CC1.[44Sc+3] (stereo not shown) |  | human serum | 24 h, 37 °C |  | intact tracer | > 95%
CC12CC(c3ccc(S(C)(=O)=O)cc3)C3=C4CCC(=O)C=C4CCC3C1CCC2(O)C(F)(F)C(F)(F)F (stereo not shown) |  | human, fasted, plasma | oral, 4 mg, alone, without itraconazole |  | AUC(0-11 d), geometric mean | 321 ng·h/mL
NC[C@@H](C(=O)Nc1ccc(-c2cn[nH]c2)cc1)c1ccccc1 | OECD 405, item: Iris | New Zealand White rabbit | topical, 0.1 %, 24 h, day 2 | direction not given | ocular irritation score | 0
CCC/C(=C\C1=C(F)C(=O)c2ccccc2C1=O)C(=O)N(CC)CC |  | human plasma | 1 µM, 37 °C |  | t1/2 | 6.88 days
COc1ccc(NC(=O)[C@H](CCCCN)NC(=O)c2cc(NC(=O)[C@H](CCCCN)NC(=O)c3cc(NC(=O)[C@H](CCCCN)NC(=O)c4cc(NC(=O)[C@@H](N)CCCCN)ccc4OC)ccc3OC)ccc2OC)cc1C(N)=O | ITC heats of dilution | TBS | pH 7.4, 25 °C, hexamer to monomer |  | enthalpy of dissociation | 14100 cal/mol
N=C(N)NCCC[C@@H]1NC(=O)[C@H](CCCCNC(=O)CC[C@H](NC(=O)CN2CCN(CC(=O)O)CCN(CC(=O)O)CCN(CC(=O)O)CC2)C(=O)NCCCC[C@@H]2NC(=O)[C@@H](Cc3ccccc3)NC(=O)[C@H](CC(=O)O)NC(=O)CNC(=O)[C@H](CCCNC(=N)N)NC2=O)NC(=O)[C@@H](Cc2ccccc2)NC(=O)[C@H](CC(=O)O)NC(=O)CNC1=O [indium-111 labelled] |  | female BALB/c nude mice, SK-RC-52 xenograft, tumour | 0.5 µg, 2 h post injection, together with: excess unlabelled DOTA-E-[c(RGDfK)]2 50 µg |  | radioactivity concentration | decreased
CC12N3Cc4c(c(OCCCS(=O)(=O)[O-])c5ccccc5c4OCCCS(=O)(=O)[O-])CN1C(=O)N1CN4C(=O)N5CN6C(=O)N7Cc8c(c(OCCCS(=O)(=O)[O-])c9ccccc9c8OCCCS(=O)(=O)[O-])CN8C(=O)N(CN9C(=O)N(CN(C3=O)C12C)C4C95)C6(C)C87C.[Na+].[Na+].[Na+].[Na+] (stereo not shown) |  |  | pD 7.4, together with: camptothecin |  | phase solubility slope | 0.1 ± 0.0051
CC(=O)N[C@H](CC(=O)O)C(=O)N[C@H](Cc1c[nH]c2ccccc12)C(=O)N[C@H](Cc1ccccc1)C(=O)N[C@H](CCCCN)C(=O)N[C@H](C)C(=O)N[C@H](Cc1ccccc1)C(=O)N[C@H](Cc1ccc(O)cc1)C(=O)N[C@H](CC(=O)O)C(=O)N[C@H](CCCCN)C(=O)N[C@@H](C(=O)N[C@H](C)C(=O)N[C@H](CCC(=O)O)C(=O)N[C@H](CCCCN)C(=O)N[C@H](Cc1ccccc1)C(=O)N[C@H](CCCCN)C(=O)N[C@H](CCC(=O)O)C(=O)N[C@H](C)C(=O)N[C@H](Cc1ccccc1)C(N)=O)C(C)C |  | statin-treated high-risk CHD women, plasma | oral, 300 mg daily, day 1, 0 to 2 h, mean, undetectable set to 0 |  | AUC(0-t) | 7 ng·h/mL
COc1cc(OC)cc(C2=C3C(C)=C(I)C(/C=C/c4cccs4)=[N+]3[B-](F)(F)n3c(/C=C/c4cccs4)c(I)c(C)c32)c1 |  | dichloromethane |  |  | log molar absorptivity | 4.59 M⁻¹ cm⁻¹
Cc1c(C(=O)Nc2ccn(C)n2)ncn1Cc1cccc(C(F)(F)F)c1 |  | human WT αS transgenic mouse | oral, dose not given |  | body weight | 28 ± 1 g
[11CH3]c1ccc2nc(C3CCC3)n(-c3ccc4[nH]ncc4c3)c2n1 | extrapolated from mouse | human female, heart wall |  |  | absorbed dose | 5.4 µSv/MBq

Compound | test | system | setting | how to read | endpoint | value
C=C(c1ncc(C(=O)O)cn1)c1cc2c(cc1C)C(C)(C)CCC2(C)C |  | Sprague-Dawley rat, male, plasma | oral, 100 mg/kg, 6 h, sesame oil vehicle |  | HDL level | 52 ± 12.3 mg/dL
Cc1ccc(C(C)C)cc1.O=C(N=P(c1ccccc1)(c1ccccc1)c1ccccc1)c1ccccn1.[Cl-].[Cl-].[Ru+2] | ICP-MS, item: ruthenium | NOD.CB17-Prkdc scid/J mouse, plasma | intraperitoneal, 5 mg/kg, after first dose |  | apparent clearance | 1.84 mL/h
CC(C)(O)c1ncc([S@](N)(=O)=NC(=O)Nc2c3c(cc4c2CCC4)CCC3)s1 |  | healthy human, fasted | oral, 100 mg single dose, spray-dried dispersion |  | Cmax | 11200 ng/mL
CCCC[C@H](NC(=O)CNC(=O)CNC(=O)CN1CCN(CC(=O)O)CCN(CC(=O)O)CCN(CC(=O)O)CC1)C(=O)N[C@H]1CC(=O)NCCCC[C@@H](C(N)=O)NC(=O)[C@H](Cc2c[nH]c3ccccc23)NC(=O)[C@H](CCCNC(=N)N)NC(=O)[C@@H](Cc2ccccc2)NC(=O)[C@H](Cc2c[nH]cn2)NC1=O [copper-64 labelled] |  | female C57 mouse, B16/F1 melanoma | intravenous, 0.037 MBq, 4 h | relative to: tumour over blood | uptake ratio | 6.48
COc1cc2c(cc1OC)CN(CCCCn1ccc3cc(OCC[18F])ccc31)C2 |  | male ICR mice | intravenous, 30 min post-injection |  | blood uptake | 1.19 ± 0.17 %ID/g
CC[C@@H](C)[C@@H]1NC(=O)[C@@H](Cc2ccccc2)NC(=O)[C@@H]2CCCN2C(=O)[C@H]([C@H](C)CC)NC(=O)[C@@H](Cc2ccccc2)NC(=O)[C@@H]2CCCN2C1=O |  | mouse liver microsomes |  |  | CLint | 8.83 mL/min/g tissue
C[C@H]1CO[C@@H]2Cn3cc(C(=O)NCc4ccc(F)cc4F)c(=O)c(O[C@@H]4O[C@H](C(=O)O)[C@@H](O)[C@H](O)[C@H]4O)c3C(=O)N12 | LC-MS/MS | human, UGT1A9 wild-type, plasma | oral, 30 mg, 1 weeks after last oral dose |  | plasma concentration | 28.1 ± 66.6 ng/mL
N#Cc1cnc2cc(OCC3CCNCC3)c(F)cc2c1Nc1cc(F)c(OCc2cccc(Cl)n2)cc1Cl |  | male beagle dog, plasma | oral, 5 mg/kg |  | AUC(0-t) | 1450 ng·h/mL
COc1cc(C)c(-c2ccc(O)c3c2C[C@@H](C)N[C@@H]3C)c2cccc(O)c12 (single isomer, unassigned) | metabolic stability | male CD-1 mouse, liver microsomes | 1 µM, 30 min |  | compound remaining | 32%
CC[N+]1(Cc2ccc3ccc(O)c(C#N)c3n2)CCCC1CNC(=O)c1cc(S(N)(=O)=O)ccc1OC (stereo not shown) | photolysis at 365 nm | KMOPS buffer | pH 7.2 |  | release yield | 65%
CC(=O)Nc1ncc(CN2CC[C@H](Oc3cccc([18F])n3)C[C@@H]2C)s1 | ultrafiltration | rhesus monkey, plasma |  |  | fraction unbound | 6.7%
C#CCOc1ccc(/C=C2\SC(=O)N(CC(=O)NCc3ccccc3)C2=O)cc1 | inverse Kirkwood-Buff integrals | binary solvent mixture | concentration not given, 298.15 K, mole fraction x1 0.55 |  | correlation volume | 4250 cm³/mol
CCc1nc(N)nc(N)c1C#CC(C)c1cc(-c2cc(C)nc(C)c2)ccc1Cl (stereo not shown) |  | human hepatocytes, pooled | 1 µM |  | scaled intrinsic clearance | ~19 mL/min/kg
C[C@@H]1Cc2c([nH]c3ccccc23)[C@@H](c2c(F)cc(/C=C/C(=O)O)cc2F)N1C12CC(C1)C2 |  | Balb/c nude mouse, MCF7 xenograft, plasma | oral, 10 mg/kg, steady state |  | AUC(0-t) | 21300 ng·h/mL
Cn1c(=O)oc2ccc(-c3ccc(CC(C#N)NC(=O)C4CNCCCO4)c(F)c3)cc21 (stereo not shown) | item: mouth ulceration | human volunteers | oral, dose not given |  | treatment-emergent adverse event incidence | 7.4%
C=C1C[C@@]23CC[C@H]4[C@@](C)(CCC[C@@]4(C)C(=O)O[C@@H]4O[C@H](CO)[C@@H](O)[C@H](O)[C@H]4O)[C@@H]2CC[C@]1(O[C@@H]1O[C@H](CO[C@H]2O[C@H](CO)[C@@H](O)[C@H](O)[C@H]2O)[C@@H](O)[C@H](O)[C@H]1O[C@@H]1O[C@H](CO)[C@@H](O)[C@H](O)[C@H]1O)C3 | H&E staining | C57BL/6N mouse, high-fat diet | drinking water, 0.2 g/L, 16 weeks |  | liver histology | no effect
C[C@H](CN(C)Cc1ccccc1)NC(=O)c1ccc(-c2noc(C(F)(F)[18F])n2)cc1 | PET | Sprague-Dawley rat, female, brain and muscle | intravenous, 10 min | relative to: brain SUV over muscle SUV | brain-to-muscle ratio | 4.01 ± 0.31
Cc1ccc(/N=N/c2c(O)ccc3ccccc23)c(C)c1 |  | Sprague-Dawley rats both sexes, whole blood | oral, 50 mg/kg |  | absorption rate constant | 1.39 h⁻¹
Cc1ccc(OCC(=O)O)cc1 |  | Sprague-Dawley rat, male, plasma | oral gavage, 30 mg/kg of parent drug |  | Tmax | 1.38 h
Cc1[nH]nc2c1N=C(c1ccccc1Cl)c1cnc(N3CCOCC3)cc1N2 |  | human male, urine | oral, 10 mg, 288 h | relative to: dose | urinary radioactivity excretion | < 10%
N=C(N)NCCC[C@@H]1NC(=O)[C@H](Cc2c[nH]c3ccccc23)NC(=O)[C@@H](CC2CCCCC2)NC(=O)[C@@H]2CCCN2C(=O)[C@@H](NC(=O)CCc2ccccc2)CCCNC1=O | two-compartment model | C57BL/6J mice, plasma | intraperitoneal, 1 mg/kg |  | alpha rate constant | 0.07 min⁻¹

A few entries again:
Compound | test | system | setting | how to read | endpoint | value
CC12CC(c3ccc(S(C)(=O)=O)cc3)C3=C4CCC(=O)C=C4CCC3C1CCC2(O)C(F)(F)C(F)(F)F (stereo not shown) |  | human, fasted, plasma | oral, 4 mg, alone, without itraconazole |  | AUC(0-11 d), geometric mean | 321 ng·h/mL
CC12N3Cc4c(c(OCCCS(=O)(=O)[O-])c5ccccc5c4OCCCS(=O)(=O)[O-])CN1C(=O)N1CN4C(=O)N5CN6C(=O)N7Cc8c(c(OCCCS(=O)(=O)[O-])c9ccccc9c8OCCCS(=O)(=O)[O-])CN8C(=O)N(CN9C(=O)N(CN(C3=O)C12C)C4C95)C6(C)C87C.[Na+].[Na+].[Na+].[Na+] (stereo not shown) |  |  | pD 7.4, together with: camptothecin |  | phase solubility slope | 0.1 ± 0.0051
C=CC(=O)Nc1cc(Nc2nccc(-c3cn(C4CC4)c4ccccc34)n2)c(OC)cc1NC | radiolabelled metabolite profiling | human male, plasma | oral, 110 mg, 4 h |  | plasma concentration | 7.75 ng/g
CCn1cc(-c2cc(Cn3ccnc3)cc3c2CCN([C@H](c2cc(OC)ccn2)C2CC2)C3=O)c(C(F)(F)F)n1 |  | mouse whole blood | 1 µM, 4 h, pH 7.4 |  | whole blood protein binding | 99.8 ± 0.1%
